Results pooled from the literature.
Numbered parts are unrelated; each lists some results of a single study. Positions count from the first letter of the parent shown.

Block 1
Target: BATF3, bZIP domain (human)
Method: DHFR protein complementation
Matrix: yeast
Notes: single substitutions, most at no-binding floor
Relative to: wild-type JUN-FOS pair
Reading: higher = stronger binding
Starting sequence: JUN, bZIP domain (human); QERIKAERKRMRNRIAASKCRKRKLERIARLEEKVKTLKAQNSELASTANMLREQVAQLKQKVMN; partner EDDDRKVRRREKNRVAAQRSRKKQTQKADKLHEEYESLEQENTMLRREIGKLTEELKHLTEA
Variant	binding fitness
Q41T	0.174 natural log
N42V	-0.133 natural log
K39G	0.115 natural log

Block 2
Target: Histone acetyltransferase KAT6A, winged helix 2, GST fusion (KAT6A, Homo sapiens, UniProt Q92794, residues 85-181)
Method: protein binding microarray
Molecule type: double-stranded DNA, one strand shown
Matrix: in vitro
Concentration: not given
Notes: 8-mer, flanks averaged, mean of 2 arrays, mostly near background
Relative to: not given
Reading: higher = stronger binding
Target sequence (chain): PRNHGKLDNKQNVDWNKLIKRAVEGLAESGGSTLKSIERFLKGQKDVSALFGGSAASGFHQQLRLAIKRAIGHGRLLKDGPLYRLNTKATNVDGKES
Strand	E-score
CGGTCACC	0.102
ATCATCCG	-0.047
ATGCCTGC	-0.0599
GAAACTCC	0.0629
CCAGATGA	-0.0477

Block 3
Target: Interferon regulatory factor 7, full length, phosphomimetic (IRF7, Homo sapiens, UniProt Q92985, residues 1-503, S471D/S472D/S475D/S476D/S477D/S483D/S484D/S487D)
Sequence of UniProt Q92985 (whole entry, unmodified, looked up): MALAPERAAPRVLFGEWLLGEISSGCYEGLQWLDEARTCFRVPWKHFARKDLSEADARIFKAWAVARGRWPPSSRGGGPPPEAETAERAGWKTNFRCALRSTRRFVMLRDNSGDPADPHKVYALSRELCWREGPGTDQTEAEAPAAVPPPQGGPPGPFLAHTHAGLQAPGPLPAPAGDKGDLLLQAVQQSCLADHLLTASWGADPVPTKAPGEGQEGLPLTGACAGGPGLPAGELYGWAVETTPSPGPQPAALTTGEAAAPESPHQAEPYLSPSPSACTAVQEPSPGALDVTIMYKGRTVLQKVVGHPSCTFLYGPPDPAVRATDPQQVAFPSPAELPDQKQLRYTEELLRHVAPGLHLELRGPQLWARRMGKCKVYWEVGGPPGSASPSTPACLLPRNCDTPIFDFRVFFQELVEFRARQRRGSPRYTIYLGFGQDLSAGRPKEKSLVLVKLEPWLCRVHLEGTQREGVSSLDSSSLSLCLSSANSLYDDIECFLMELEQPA
Method: protein-binding microarray
Molecule type: double-stranded DNA, one strand shown
Matrix: in vitro
Concentration: 2200 nM top
Notes: 60-bp whole probe
Added: salmon DNA 0.4 mg/ml
Relative to: random background probes
Reading: higher = stronger binding
Strand	fitted relative affinity [z-score]
GCCTAGCACGACGGTCTCGGTATCGGTACGTGCTAGGTCTTGATTCGCTTGACGCTGCTG	0.237
GCCTAGCACTTAAGTTTCGACTTTCGGTTAGTGCTAGTCTTGATTCGCTTGACGCTGCTG	12.5
GCCTAGCACACTCTAATCTCACTCTGTCCGTGCTAGGTCTTGATTCGCTTGACGCTGCTG	1.43
GCCTAGCACCACGGTTTCGGTTCCGGGACGTGCTAGGTCTTGATTCGCTTGACGCTGCTG	11.8

Other studies, line by line
Molecule	target	assay	system	setting	how to read	endpoint	result
PhoQ, residues 284 288 289 292 302 303 SCKMEA	PhoP, residues 12 14 15 18 19 DLLYY (Escherichia coli, UniProt P23836)	Sort-seq, measured: YFP reporter	E. coli	PhoQ-PhoP variant library, added: 10 µM Mg2+	relative to: high Mg2+ state, higher = stronger signaling	fold induction	1.44

Excerpt of the above (block 3):
Strand	fitted relative affinity [z-score]
GCCTAGCACACTCTAATCTCACTCTGTCCGTGCTAGGTCTTGATTCGCTTGACGCTGCTG	1.43
